Results of several laboratories.
A part holds a random share of what one study measured. Values joined by “and” are separate records of one study, mostly repeats; a detail may differ.
Chain of UniProt O14578 (whole entry, looked up): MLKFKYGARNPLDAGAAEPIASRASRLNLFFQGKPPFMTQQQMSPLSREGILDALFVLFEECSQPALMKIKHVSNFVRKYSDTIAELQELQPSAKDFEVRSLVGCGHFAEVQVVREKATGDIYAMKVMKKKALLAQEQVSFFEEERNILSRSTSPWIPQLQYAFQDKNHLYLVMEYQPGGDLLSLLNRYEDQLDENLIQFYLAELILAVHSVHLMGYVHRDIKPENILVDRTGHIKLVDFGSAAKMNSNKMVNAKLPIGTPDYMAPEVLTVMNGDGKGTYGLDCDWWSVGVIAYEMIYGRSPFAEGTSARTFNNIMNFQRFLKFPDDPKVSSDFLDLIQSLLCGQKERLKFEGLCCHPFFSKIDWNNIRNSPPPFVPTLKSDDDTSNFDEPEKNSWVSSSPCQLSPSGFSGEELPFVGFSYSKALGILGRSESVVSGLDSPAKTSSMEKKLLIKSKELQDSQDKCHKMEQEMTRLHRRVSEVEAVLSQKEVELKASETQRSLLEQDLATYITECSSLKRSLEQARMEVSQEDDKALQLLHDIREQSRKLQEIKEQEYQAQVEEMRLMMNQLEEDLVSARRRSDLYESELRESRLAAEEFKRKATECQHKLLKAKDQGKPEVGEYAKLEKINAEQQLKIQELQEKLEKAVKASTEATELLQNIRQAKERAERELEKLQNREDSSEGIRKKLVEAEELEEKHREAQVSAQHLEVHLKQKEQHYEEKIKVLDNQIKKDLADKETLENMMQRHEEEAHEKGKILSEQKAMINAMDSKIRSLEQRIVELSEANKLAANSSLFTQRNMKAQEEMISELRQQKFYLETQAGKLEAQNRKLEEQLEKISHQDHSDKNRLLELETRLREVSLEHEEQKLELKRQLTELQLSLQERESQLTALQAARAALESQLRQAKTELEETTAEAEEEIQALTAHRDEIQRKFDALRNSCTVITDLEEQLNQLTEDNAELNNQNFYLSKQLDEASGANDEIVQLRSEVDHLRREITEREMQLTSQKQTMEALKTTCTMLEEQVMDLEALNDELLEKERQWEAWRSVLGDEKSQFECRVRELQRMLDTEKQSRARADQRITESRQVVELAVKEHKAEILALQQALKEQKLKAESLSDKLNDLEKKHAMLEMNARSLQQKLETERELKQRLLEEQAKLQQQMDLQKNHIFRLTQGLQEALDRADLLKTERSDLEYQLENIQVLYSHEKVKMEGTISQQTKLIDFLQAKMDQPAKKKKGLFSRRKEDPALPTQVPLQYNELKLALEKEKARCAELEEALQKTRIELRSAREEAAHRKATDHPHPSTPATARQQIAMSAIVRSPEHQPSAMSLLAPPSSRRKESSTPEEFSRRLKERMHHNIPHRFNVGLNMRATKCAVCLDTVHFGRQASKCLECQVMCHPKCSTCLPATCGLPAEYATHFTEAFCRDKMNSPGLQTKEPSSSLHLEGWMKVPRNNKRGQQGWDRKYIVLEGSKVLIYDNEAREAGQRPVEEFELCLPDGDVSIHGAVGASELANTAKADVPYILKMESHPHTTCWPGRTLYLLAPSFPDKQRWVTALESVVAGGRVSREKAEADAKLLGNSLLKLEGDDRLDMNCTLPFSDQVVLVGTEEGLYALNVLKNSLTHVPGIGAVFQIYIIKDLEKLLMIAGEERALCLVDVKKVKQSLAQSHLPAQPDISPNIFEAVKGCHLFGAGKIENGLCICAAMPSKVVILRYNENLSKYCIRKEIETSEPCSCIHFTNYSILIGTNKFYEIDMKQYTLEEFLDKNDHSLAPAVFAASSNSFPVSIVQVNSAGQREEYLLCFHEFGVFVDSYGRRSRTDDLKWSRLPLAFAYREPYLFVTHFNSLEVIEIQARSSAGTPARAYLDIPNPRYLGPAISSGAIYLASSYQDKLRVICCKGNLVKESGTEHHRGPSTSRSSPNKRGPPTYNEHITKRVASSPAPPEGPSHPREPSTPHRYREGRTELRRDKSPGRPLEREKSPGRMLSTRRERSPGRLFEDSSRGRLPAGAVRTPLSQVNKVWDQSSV

Series 1
Target: DNA polymerase theta, ATPase domain (POLQ, Homo sapiens, UniProt O75417)
Chain of UniProt O75417 (whole entry, unmodified, looked up): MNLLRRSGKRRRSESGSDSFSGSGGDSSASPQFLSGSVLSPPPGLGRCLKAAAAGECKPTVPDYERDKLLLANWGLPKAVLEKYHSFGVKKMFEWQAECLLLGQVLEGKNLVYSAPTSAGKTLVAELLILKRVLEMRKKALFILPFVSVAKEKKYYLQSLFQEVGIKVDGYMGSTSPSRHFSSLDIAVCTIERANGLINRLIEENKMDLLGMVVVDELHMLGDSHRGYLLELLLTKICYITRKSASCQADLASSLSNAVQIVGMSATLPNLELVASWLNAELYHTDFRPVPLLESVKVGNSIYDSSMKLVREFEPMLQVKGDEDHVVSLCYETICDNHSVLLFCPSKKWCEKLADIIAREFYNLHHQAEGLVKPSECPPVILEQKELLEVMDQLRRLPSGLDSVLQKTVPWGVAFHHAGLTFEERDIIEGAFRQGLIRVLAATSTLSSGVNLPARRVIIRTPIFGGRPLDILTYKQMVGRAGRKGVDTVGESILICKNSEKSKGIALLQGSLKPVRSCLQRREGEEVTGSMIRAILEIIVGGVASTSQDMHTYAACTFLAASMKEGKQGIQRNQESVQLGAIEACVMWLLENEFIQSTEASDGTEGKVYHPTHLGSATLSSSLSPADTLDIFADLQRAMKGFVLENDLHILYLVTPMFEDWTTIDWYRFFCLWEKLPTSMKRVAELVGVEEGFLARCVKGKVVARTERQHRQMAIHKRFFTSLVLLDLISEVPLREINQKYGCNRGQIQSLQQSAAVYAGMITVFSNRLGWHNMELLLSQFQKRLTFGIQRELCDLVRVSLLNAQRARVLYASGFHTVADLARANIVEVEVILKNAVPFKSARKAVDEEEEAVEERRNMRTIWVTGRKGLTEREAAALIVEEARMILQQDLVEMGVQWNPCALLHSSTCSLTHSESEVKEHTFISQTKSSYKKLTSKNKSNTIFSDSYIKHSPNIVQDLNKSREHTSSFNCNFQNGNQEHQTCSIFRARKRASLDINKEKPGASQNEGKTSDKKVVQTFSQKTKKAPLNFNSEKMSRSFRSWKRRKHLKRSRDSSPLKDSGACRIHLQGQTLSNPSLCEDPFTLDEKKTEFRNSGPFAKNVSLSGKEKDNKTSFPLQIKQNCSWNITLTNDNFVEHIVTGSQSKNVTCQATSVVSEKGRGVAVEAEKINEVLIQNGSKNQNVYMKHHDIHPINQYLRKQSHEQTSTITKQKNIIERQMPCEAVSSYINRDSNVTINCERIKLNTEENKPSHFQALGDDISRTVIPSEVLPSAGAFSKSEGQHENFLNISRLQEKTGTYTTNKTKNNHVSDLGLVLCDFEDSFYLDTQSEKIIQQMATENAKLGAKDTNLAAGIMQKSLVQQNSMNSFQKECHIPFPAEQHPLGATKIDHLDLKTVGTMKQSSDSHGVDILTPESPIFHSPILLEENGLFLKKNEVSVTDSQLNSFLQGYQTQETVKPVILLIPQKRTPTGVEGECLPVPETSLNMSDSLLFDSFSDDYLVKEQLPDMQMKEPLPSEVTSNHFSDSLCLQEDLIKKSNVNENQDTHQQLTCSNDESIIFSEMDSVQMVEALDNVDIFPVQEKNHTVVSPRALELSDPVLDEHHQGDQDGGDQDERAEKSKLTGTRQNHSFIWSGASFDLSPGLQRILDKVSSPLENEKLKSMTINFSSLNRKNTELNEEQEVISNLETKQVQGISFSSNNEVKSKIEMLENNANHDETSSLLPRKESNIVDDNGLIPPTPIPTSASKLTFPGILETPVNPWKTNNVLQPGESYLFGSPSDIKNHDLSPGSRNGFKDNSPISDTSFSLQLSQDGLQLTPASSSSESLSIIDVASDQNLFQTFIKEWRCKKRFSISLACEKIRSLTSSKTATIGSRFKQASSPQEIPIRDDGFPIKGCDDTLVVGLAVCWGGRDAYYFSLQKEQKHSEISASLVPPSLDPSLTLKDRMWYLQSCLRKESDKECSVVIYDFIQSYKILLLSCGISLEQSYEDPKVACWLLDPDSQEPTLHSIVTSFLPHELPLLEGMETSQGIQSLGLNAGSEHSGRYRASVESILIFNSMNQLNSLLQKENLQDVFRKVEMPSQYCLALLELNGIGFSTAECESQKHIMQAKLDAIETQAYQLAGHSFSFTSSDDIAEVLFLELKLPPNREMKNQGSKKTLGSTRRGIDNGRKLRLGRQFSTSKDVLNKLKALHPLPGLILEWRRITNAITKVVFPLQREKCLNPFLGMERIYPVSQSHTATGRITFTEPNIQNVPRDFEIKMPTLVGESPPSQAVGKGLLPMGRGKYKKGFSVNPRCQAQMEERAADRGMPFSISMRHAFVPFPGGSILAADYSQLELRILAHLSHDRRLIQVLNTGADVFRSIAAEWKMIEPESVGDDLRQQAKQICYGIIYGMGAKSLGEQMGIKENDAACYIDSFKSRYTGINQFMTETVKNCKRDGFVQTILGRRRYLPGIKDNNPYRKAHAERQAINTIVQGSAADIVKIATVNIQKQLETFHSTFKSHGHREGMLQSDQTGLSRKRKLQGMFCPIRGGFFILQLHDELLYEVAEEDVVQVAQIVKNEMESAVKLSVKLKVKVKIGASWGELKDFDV
Observed: enzyme activity
Mode: inhibitor
Concentration: 77 µM
Relative to: untreated
Structure (SMILES)	remaining activity
CN(c1ccccc1CNc1nc(Nc2ccc3c(c2)CC(=O)N3)ncc1C(F)(F)F)S(C)(=O)=O	104% and 109%
C#C[C@]1(OC(C)=O)CC[C@H]2[C@@H]3CCC4=C[C@@H](OC(C)=O)CC[C@@H]4[C@H]3CC[C@@]21C	101% and 100%
CC(C)(C#N)c1cc(Cn2cncn2)cc(C(C)(C)C#N)c1	102%
Nc1ncnc2c1c(I)cn2[C@@H]1O[C@H](CO)[C@@H](O)[C@H]1O	94.1%

Series 2
SMILES: CC(C)n1cnc(-c2ccc(F)cc2)c1-c1ncc(C(=O)Nc2ccc(N3CCN(C)CC3)cc2)[nH]1
Technique: phase 2a clinical trial
Host: patients with idiopathic pulmonary fibrosis
dose	notes	with	patients with ALT increase [%]
30 mg once daily		standard of care	0
60 mg once daily		standard of care	9.1
60 mg once daily	without standard of care		0

Series 3
SMILES: O=C(Nc1cccnn1)N1CCC(=Cc2cccc(Oc3ccc(C(F)(F)F)cn3)c2)CC1
Observed: cell-free assay
Technique: competition with immobilised ligand
Concentration: 1 µM
target	remaining binding
TXK (Homo sapiens, UniProt P42681)	100%
CIT (Homo sapiens, UniProt O14578)	79%
NLK (Homo sapiens, UniProt Q9UBE8)	100%
CDKL1 (Homo sapiens, UniProt Q00532)	86%
PKN1 (Homo sapiens, UniProt Q16512)	100%
NEK11 (Homo sapiens, UniProt Q8NG66)	100%
EGFR (Homo sapiens, UniProt P00533, G719S)	99%
NTRK2 (Homo sapiens, UniProt Q16620)	100%
HIPK1 (Homo sapiens, UniProt Q86Z02)	100%
ROCK1 (Homo sapiens, UniProt Q13464)	100%
EGFR (Homo sapiens, UniProt P00533, del752-759)	69%
Ribosomal protein S6 kinase alpha-3, N-terminal kinase domain (RPS6KA3, Homo sapiens, UniProt P51812)	100%

Series 4
Target: SRSF protein kinase 3 (SRPK3, Homo sapiens, UniProt Q9UPE1)
Chain of UniProt Q9UPE1 (whole entry, looked up): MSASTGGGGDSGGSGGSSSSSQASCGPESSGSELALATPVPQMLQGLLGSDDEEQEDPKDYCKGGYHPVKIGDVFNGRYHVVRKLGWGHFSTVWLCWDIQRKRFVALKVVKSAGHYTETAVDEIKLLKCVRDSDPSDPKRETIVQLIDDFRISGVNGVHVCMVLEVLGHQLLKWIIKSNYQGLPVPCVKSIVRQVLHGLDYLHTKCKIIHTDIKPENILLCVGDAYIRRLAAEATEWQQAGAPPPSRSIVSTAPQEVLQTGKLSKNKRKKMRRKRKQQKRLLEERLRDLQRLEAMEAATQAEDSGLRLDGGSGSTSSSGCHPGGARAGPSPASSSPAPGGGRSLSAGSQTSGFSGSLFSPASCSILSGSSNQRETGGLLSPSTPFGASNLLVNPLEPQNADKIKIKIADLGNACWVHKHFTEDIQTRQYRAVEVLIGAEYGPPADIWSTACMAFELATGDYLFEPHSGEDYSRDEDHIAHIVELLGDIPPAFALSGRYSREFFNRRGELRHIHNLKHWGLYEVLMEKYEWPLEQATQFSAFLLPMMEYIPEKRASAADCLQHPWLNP
Observed: enzyme activity
Mode: inhibitor
Concentration: 0.5 µM
Relative to: control
SMILES	remaining activity
O=C(CCCc1ccc(-c2ccccc2F)cc1)Nc1ccc(O)cc1	93.7%
CCOC(=O)c1c(C)[nH]c(/C=C2\C(=O)Nc3ccccc32)c1C	88.8%
Oc1ccc(-c2nc(-c3ccncc3)c(-c3ccc(F)cc3)[nH]2)cc1	95.9%
COc1ccc(C(=O)Nc2sc3c(c2C(N)=O)CCCC3)cc1OC	92%
O=C1NC(=O)C(c2cn(CCCn3ccnc3)c3ccccc23)=C1Nc1ccccc1	92.5%
Cc1ccc(Nc2nccc(N(C)c3ccc4c(C)n(C)nc4c3)n2)cc1S(N)(=O)=O	102%
COc1cc2nccc(Oc3ccc(NC(=S)NC(=O)c4ccccc4C)cc3)c2cc1OC	95.9%
O=S(=O)(c1cccc2cnccc12)N1CCCNCC1	96.4%
COc1cc2ncnc(Nc3ccc(F)c(Cl)c3)c2cc1OCCCN1CCOCC1	103%
O=c1c2ccccc2[nH]c(=S)n1CCN1CCC(=C(c2ccc(F)cc2)c2ccc(F)cc2)CC1	102%
CN(C)c1ccc(C=C2C(=O)Nc3ccccc32)cc1	98.7%
Nc1ncnc2n[nH]c(Nc3ccc(F)cc3)c12	91.5%
Cn1sc(=O)n(Cc2ccccc2)c1=O	97.3%
Nc1[nH]nc2nc3ccccc3nc12	95.6%
CNC(=O)c1cc(Oc2ccc(NC(=O)Nc3ccc(Cl)c(C(F)(F)F)c3)cc2)ccn1	88.4%
O=C1NC(=O)c2cc(Nc3ccc(F)cc3)c(Nc3ccc(F)cc3)cc21	98%
Cc1ccc(NC(=O)c2ccc(CN3CCN(C)CC3)cc2)cc1Nc1nc(-c2cccnc2)cs1	102%
